Assay results from different studies.
Numbered parts are unrelated; each lists some results of a single study. Changes are numbered by the printed parent chain.

Sample 1
Target: Transcription factor SOX-2, HMG box (Sox2, Mus musculus, UniProt P48432, residues 41-119)
Chain of UniProt P48432 (41-119, looked up): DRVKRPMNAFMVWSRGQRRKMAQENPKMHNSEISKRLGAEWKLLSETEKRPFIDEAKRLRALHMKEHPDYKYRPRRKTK
Technique: Spec-seq
Form: double-stranded DNA, one strand shown
Medium: in vitro
Concentration: not given
Setting: whole probe, mean of replicates
Relative to: not given
Reading: lower = stronger binding
Constant ends, left off below: GAGTCGTCTCGTCAGCAC … CCGTAGAGCACTCAGGTC
| Oligonucleotide | relative binding energy [ln ratio] |
| --- | --- |
| CATGGCT | 0.267 |
| GCCAGTT | 0.734 |
| CATACCA | 0.214 |
| CATATTC | 0.149 |
| GTATGTT | 0.386 |
| CATAATT | -0.661 |
| CGCGGTT | 1.21 |
| CATTAGA | -0.127 |

Sample 2
Target: FOXO3, forkhead domain (mouse, UniProt Q9WVH4, residues 31-263)
Chain of UniProt Q9WVH4 (31-263, looked up): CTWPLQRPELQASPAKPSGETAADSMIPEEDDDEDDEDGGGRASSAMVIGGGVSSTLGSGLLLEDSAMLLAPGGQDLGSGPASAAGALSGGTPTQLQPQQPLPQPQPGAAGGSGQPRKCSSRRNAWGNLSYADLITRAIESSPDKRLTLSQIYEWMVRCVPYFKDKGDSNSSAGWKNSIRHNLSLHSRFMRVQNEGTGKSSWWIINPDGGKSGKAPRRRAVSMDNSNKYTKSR
Technique: protein-binding microarray
Form: hairpin DNA
Medium: in vitro
Concentration: not given
Setting: whole hairpin DNA, median over replicate spots
Relative to: not given
Reading: higher = stronger binding
| Oligonucleotide | median fluorescence [a.u.] |
| --- | --- |
| GAGGCCATGCAAACCGCGCCTCCTGGCGCGGTTTGCATGGCCTCACACTC (5mC at 29) | 4930 |
| GAGGCCATCCAAACAACGCCTCCTGGCGTTGTTTGGATGGCCTCACACTC (5mC at 9) | 4280 |
| GAGGCCATGCAAACAACGCCTCCTGGCGTTGTTTGCATGGCCTCACACTC (5mC at 10) | 6100 |
| GAGGCCATATAACCAACGCCTCCTGGCGTTGGTTATATGGCCTCACACTC | 3540 |
| GAGGCCATGTAACCCGCGCCTCCTGGCGCGGGTTACATGGCCTCACACTC (5mC at 15 29) | 4370 |
| GAGGCCATGTAAACTACGCCTCCTGGCGTAGTTTACATGGCCTCACACTC | 4020 |
| GAGGCCCTGTAACCAACGCCTCCTGGCGTTGGTTACAGGGCCTCACACTC | 4190 |
| GAGGCCATGTAATCAACGCCTCCTGGCGTTGATTACATGGCCTCACACTC | 4030 |

Sample 3
Target: Centromere-binding protein 1, full length, N-terminal tag (CBF1, Saccharomyces cerevisiae, UniProt P17106, residues 1-351)
Chain of UniProt P17106 (whole entry, looked up): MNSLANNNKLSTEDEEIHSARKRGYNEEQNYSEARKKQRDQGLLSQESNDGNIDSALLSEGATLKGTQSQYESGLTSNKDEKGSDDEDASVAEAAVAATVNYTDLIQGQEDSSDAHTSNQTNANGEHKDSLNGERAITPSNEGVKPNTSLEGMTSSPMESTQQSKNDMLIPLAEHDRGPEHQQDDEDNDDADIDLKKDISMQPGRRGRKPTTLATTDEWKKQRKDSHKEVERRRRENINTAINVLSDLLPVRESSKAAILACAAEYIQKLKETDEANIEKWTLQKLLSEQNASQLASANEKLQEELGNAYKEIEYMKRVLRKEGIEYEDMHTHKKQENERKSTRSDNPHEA
Technique: protein-binding microarray
Form: double-stranded DNA, one strand shown
Medium: in vitro
Concentration: 0.8 µM
Setting: whole 60-bp probe, no competitor
Reading: higher = stronger binding
Constant ends, left off below: … GTCTTGATTCGCTTGACGCTGCTG
| Oligonucleotide | fluorescence intensity [a.u.] |
| --- | --- |
| GAAGTTTATATAGGTATGGTGACGAGGCTCTACTAG | 571 |
| GAATTTTTTGGATTTCAACTGATAGTTTTCGTATAG | 518 |
| TGTACGAAGCTATCGCACGTTCATATAGTAGTTAGG | 554 |
| GAAATTAAATCAAGGCACGCCAGTGCTGCCTCTTAG | 485 |
| GAAGCTTAAGGCCCCCACGAACAGTACGTGAGCTAG | 494 |
| GAATCACAAAATGCATACCTGATGCATACACAGTAG | 495 |
| CTAATTTCTCAGCGCCAGGTGATCTAACAATTTTTC | 885 |
| CTAAATATTTTACTTCACGTTATATTCTTTTTTTTC | 599 |

Single results of other studies
Parent: viral docking peptide; KGVKRKLFAEDSS
| Substitution | target | assay | test system | conditions | how to read | endpoint | value |
| --- | --- | --- | --- | --- | --- | --- | --- |
| R5K | CCNA1, cyclin fold, Cln2 fusion (human) | yeast growth competition, sequencing | yeast | weak parent motif | relative to: not given, higher = stronger binding | normalised enrichment score | 0.679 |

Repeated from above (sample 2):
| Oligonucleotide | median fluorescence [a.u.] |
| --- | --- |
| GAGGCCCTGTAACCAACGCCTCCTGGCGTTGGTTACAGGGCCTCACACTC | 4190 |
